Results from different studies.
Each line is one published result; not all experiments were run side by side. Numbers after ± are the reported error.
CSNK1E: Casein kinase I isoform epsilon (CSNK1E, Homo sapiens, UniProt P49674)
Sequence of UniProt P49674 (whole entry, looked up): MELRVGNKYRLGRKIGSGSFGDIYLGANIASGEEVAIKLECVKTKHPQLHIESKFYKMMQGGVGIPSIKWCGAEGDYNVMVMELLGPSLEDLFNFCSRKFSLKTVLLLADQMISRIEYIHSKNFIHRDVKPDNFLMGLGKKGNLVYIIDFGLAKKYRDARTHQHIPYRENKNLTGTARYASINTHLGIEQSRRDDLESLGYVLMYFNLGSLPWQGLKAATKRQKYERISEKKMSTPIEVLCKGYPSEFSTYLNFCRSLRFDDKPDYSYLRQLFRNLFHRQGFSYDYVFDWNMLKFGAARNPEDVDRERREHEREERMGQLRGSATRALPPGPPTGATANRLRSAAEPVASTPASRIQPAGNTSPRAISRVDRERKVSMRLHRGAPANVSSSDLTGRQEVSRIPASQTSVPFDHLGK
EPHA2: Ephrin type-A receptor 2 (EPHA2, Homo sapiens, UniProt P29317)
Sequence of UniProt P29317 (whole entry, looked up): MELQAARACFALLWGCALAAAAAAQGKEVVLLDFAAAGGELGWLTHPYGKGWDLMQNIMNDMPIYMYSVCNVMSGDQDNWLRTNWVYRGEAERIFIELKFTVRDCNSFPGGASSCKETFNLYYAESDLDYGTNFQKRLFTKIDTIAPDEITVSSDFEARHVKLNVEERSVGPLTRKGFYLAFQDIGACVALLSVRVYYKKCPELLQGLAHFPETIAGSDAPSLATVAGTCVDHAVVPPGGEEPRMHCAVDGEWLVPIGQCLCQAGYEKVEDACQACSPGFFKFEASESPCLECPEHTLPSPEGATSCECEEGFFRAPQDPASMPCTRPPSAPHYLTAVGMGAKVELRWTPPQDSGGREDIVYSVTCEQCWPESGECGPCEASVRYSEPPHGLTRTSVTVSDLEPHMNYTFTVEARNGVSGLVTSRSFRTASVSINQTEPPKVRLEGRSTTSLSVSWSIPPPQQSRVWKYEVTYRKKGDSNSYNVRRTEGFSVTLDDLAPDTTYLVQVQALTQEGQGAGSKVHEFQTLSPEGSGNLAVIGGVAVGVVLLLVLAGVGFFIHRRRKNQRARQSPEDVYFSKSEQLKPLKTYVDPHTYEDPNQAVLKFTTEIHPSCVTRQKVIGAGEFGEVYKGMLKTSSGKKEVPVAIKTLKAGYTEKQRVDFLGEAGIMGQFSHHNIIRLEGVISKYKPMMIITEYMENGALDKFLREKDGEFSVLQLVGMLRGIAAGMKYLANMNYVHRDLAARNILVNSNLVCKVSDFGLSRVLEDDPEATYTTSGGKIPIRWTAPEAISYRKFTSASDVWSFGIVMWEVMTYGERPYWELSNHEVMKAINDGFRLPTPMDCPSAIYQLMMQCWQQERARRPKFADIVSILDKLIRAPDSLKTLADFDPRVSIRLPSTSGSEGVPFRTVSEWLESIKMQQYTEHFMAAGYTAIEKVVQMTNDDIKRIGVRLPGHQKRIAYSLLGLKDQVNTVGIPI
DRD2: D(2) dopamine receptor (DRD2, Homo sapiens, UniProt P14416)
Sequence of UniProt P14416 (whole entry, looked up): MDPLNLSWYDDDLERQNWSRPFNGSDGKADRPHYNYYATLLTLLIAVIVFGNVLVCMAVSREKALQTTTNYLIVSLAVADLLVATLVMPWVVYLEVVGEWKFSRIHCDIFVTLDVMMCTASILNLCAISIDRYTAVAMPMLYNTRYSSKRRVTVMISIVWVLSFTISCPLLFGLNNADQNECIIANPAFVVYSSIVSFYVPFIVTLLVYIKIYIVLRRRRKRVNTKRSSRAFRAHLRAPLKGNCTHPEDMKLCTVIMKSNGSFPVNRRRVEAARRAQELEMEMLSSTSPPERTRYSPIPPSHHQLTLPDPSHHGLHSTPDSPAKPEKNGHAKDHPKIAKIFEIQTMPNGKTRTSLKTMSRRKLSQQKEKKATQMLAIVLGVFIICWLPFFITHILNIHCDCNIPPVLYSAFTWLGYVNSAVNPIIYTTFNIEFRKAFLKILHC
FAAH: Fatty-acid amide hydrolase 1 (FAAH, Homo sapiens, UniProt O00519)
KRAS with SOS1: GTPase KRas, with SOS1 (KRAS, Homo sapiens, UniProt P01116)
TAF1L BD2: Transcription initiation factor TFIID subunit 1-like, BD2 (TAF1L, Homo sapiens, UniProt Q8IZX4)
NTRK2: BDNF/NT-3 growth factors receptor (NTRK2, Homo sapiens, UniProt Q16620)
Sequence of UniProt Q16620 (whole entry, looked up): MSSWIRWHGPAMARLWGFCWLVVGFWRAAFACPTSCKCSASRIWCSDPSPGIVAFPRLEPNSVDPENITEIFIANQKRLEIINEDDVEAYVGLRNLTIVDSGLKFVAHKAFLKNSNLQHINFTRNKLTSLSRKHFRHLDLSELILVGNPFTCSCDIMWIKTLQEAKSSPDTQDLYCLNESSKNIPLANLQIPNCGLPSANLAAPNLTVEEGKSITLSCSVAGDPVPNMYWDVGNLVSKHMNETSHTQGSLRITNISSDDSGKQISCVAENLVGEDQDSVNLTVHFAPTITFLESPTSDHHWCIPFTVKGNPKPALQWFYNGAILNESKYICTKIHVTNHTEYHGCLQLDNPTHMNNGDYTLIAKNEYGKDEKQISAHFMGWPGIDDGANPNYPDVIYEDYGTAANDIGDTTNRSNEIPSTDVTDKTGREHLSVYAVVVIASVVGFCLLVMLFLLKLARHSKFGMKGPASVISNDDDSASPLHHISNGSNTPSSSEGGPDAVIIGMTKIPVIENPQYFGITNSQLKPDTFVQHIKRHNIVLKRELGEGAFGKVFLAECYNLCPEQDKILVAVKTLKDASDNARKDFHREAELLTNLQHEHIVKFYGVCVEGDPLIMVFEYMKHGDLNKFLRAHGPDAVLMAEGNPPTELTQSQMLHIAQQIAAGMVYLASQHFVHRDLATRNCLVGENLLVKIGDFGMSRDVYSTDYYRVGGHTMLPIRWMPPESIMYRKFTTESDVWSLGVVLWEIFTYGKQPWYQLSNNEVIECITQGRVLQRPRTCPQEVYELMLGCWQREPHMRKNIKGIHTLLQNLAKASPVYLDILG
CDK6 with cyclin D1: Cyclin-dependent kinase 6, with cyclin D1 (CDK6, Homo sapiens, UniProt Q00534)
Sequence of UniProt Q00534 (whole entry, looked up): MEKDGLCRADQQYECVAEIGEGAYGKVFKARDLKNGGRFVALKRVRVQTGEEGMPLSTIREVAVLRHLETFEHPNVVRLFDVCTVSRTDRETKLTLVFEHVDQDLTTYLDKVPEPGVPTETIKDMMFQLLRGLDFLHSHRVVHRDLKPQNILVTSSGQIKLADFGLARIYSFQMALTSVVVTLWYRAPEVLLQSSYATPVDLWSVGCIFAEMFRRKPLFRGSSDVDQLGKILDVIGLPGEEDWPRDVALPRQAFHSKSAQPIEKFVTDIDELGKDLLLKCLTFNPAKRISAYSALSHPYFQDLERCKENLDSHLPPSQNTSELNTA
MCL1: Induced myeloid leukemia cell differentiation protein Mcl-1 (MCL1, Homo sapiens, UniProt Q07820)
Sequence of UniProt Q07820 (whole entry, looked up): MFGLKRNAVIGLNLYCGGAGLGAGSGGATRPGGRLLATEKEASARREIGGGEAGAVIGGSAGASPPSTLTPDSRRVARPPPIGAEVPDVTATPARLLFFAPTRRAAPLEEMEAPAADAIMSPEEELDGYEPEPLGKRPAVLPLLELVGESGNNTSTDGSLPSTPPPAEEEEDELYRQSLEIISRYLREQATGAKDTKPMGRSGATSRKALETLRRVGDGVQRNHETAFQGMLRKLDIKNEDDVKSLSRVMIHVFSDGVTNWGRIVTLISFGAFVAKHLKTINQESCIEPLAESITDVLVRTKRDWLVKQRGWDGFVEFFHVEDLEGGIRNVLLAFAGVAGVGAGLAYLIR
PTGS2: Prostaglandin G/H synthase 2 (PTGS2, Homo sapiens, UniProt P35354)
Sequence of UniProt P35354 (whole entry, looked up): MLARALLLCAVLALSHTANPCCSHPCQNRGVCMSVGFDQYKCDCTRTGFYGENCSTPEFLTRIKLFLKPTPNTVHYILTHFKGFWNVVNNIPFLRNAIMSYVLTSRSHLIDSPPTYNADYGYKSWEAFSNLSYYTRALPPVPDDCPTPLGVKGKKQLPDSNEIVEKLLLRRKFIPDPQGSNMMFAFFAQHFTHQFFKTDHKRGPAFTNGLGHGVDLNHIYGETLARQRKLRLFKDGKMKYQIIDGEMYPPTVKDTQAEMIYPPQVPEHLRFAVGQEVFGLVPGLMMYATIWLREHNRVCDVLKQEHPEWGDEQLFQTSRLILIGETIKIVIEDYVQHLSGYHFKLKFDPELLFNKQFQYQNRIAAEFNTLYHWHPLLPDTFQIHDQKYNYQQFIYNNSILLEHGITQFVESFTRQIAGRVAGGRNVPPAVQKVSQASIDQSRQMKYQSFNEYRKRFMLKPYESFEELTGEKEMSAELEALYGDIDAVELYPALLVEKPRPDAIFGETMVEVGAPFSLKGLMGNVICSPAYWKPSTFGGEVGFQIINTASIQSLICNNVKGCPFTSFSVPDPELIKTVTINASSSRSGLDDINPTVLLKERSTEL
Lysine--tRNA ligase, cytoplasmic: Lysine--tRNA ligase, cytoplasmic (Arabidopsis thaliana, UniProt Q9ZPI1)
Sequence of UniProt Q9ZPI1 (whole entry, looked up): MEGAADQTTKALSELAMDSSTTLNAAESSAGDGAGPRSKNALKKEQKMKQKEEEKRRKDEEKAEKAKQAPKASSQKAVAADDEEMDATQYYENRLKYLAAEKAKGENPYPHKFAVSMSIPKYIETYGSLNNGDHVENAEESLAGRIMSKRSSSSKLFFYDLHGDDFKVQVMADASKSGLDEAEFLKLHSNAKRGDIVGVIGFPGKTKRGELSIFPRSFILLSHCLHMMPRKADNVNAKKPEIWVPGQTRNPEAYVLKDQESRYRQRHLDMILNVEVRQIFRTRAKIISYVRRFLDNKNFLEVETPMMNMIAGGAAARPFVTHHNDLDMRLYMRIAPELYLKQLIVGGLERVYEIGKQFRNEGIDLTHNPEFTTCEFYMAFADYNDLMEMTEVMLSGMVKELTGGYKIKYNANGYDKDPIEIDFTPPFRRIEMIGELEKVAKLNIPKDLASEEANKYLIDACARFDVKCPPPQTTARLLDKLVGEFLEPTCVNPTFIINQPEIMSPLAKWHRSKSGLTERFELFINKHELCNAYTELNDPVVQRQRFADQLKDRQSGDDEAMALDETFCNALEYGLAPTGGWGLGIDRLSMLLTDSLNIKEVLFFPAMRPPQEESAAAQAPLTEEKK
DNA polymerase catalytic subunit: DNA polymerase catalytic subunit (Human cytomegalovirus, UniProt P08546)
Sequence of UniProt P32246 (whole entry, looked up): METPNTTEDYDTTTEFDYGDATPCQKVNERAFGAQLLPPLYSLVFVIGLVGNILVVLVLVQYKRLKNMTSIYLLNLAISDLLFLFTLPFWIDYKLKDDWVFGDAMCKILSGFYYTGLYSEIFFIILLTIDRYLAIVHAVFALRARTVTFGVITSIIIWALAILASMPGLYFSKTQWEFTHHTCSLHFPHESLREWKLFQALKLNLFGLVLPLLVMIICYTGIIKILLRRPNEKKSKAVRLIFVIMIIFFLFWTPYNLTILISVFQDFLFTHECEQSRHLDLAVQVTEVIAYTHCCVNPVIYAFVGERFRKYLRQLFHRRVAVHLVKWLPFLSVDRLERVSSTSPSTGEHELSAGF

COc1cc(/C=N/n2c(C)nc3ccc(Br)cc3c2=O)ccc1O  IC50 (XDH (Bos taurus, UniProt P80457); enzyme activity, inhibitor): 56700 ± 4240 nM
Fc1ccc(-c2nc(-c3ccc4ccccc4c3Br)[nH]c2-c2ccncc2)cc1  IC50 (CSNK1E; inhibitor): 49.5 ± 2.1 nM
CC[C@@H]1[C@H](F)C(=O)N[C@@H]1COc1nccc2cc(C(N)=O)c(OC)cc12  IC50 (EPHA2; ATP-site binding, ActivX kinase profiling; THP-1 cell lysate): > 5000 nM
Cc1c(C(=O)N2CCC(F)(F)C2)c(S(=O)(=O)Nc2ccc(C(F)(F)F)c(Cl)c2)c(C)n1C  IC50 (DRD2): > 100000 nM
C=CC(=O)Nc1cc(Nc2nccc(-c3cn(C)c4ccccc34)n2)c(OC)cc1N(C)CCN(C)C  IC50 (SLC22A8 (Homo sapiens, UniProt Q8TCC7); inhibitor): no inhibition
O=C(Nc1ccc(-c2cccc3ncccc23)cc1)C1CCN(S(=O)(=O)c2ccccc2Cl)CC1  IC50 (FAAH; inhibitor; 60 min preincubation): 21.4 nM
C[C@H]1CN(C)CCCN1c1nccc(-c2noc([C@@]3(C)CCCc4sc(N)c(C#N)c43)n2)n1  IC50 (KRAS with SOS1; KRAS wild type-SOS1 interaction, inhibitor, AlphaScreen; geometric mean): 30 nM
COc1nc(NCc2cn(-c3ccc(C(=O)Nc4ccc(C(F)(F)F)cc4)cc3)nn2)nc(OC)n1  IC50 (Stromelysin-2 (Homo sapiens, UniProt P09238)): 205 ± 4 nM
CN(C)c1cc2c(cc1N1C(=O)c3cccc4cccc(c34)C1=O)n(C)c(=O)n2C  IC50 (TAF1L BD2; HTRF; GST-tagged protein): 263 nM
COc1ccc(-c2cc(OCC(=O)N(C)Cc3cccnc3C)nc(-n3nc(C)cc3C)n2)cc1  IC50 (LNPEP (Homo sapiens, UniProt Q9UIQ6); inhibitor, HPLC; first phase of biphasic curve; partial inhibition): ~100 nM
Cc1ccc2[nH]nc(-c3nnc(Nc4ccc(Cl)c(Cl)c4)s3)c2c1  IC50 (α-glucosidase; enzyme activity, inhibitor; pH 6.8, together with: p-nitrophenyl-α-D-glucopyranoside): 4810 ± 1510 nM
Cc1ccc(NS(=O)(=O)c2c(C(=O)N3CCC(F)(F)C3)c(=O)[nH]n2C)cc1Cl  IC50 (DRD2): > 100000 nM
O=C(O)/C(=C/c1c(C(=O)O)[nH]c2cc(Cl)cc(Cl)c12)c1ccccc1  IC50 (Grin1 (Rattus norvegicus, UniProt P35439); binding, radioligand binding): 9.34 nM
Cc1[nH]c(C)c(S(=O)(=O)Nc2ccc(C(F)(F)F)c(Cl)c2)c1C(=O)N1CCC(=O)C1  IC50 (DRD2): > 100000 nM
CN1CCN(c2ccc(Nc3ncc4cc(C#N)c(=O)n(C5CCCC5)c4n3)cc2)CC1  IC50 (EPHA2): 69.5 nM
Cc1nc2ncnn2c(Nc2ccc(C(F)(F)F)cc2)c1Cl  IC50 (DHODH (Homo sapiens, UniProt Q02127); enzyme activity, inhibitor): > 100000 nM
CC1(C)COc2ccc(F)cc2CN2c3nc4c(cnn4cc3OC[C@H]2C(F)F)C(=O)N1  IC50 (NTRK2; enzyme activity, inhibitor; together with: 1 mM ATP): 0.3 nM
CN(C)C(=O)c1cc2cnc(Nc3cc(C(F)(F)F)c(-c4ccc5c(=O)cc(N6CCOCC6)oc5c4)cn3)nc2n1C1CCCC1  IC50 (CDK6 with cyclin D1; inhibitor, HotSpot radiometric kinase; together with: 10 µM ATP, cyclin D1): > 10000 nM
O=C(NC1CCC1)[C@H](Cc1c[nH]c2ccccc12)NC(=O)[C@H](CCCCNC(=S)NCCn1nn[nH]c1=O)NS(=O)(=O)c1cccc(F)c1  IC50 (SIRT5 (Homo sapiens, UniProt Q9NXA8); enzyme activity, inhibitor): 1500 ± 100 nM
Cc1cc(Nc2nc(N[C@@H](C)c3ncc(F)cn3)ncc2Cl)n[nH]1  IC50 (JAK1 (Homo sapiens, UniProt P23458); enzyme activity, inhibitor): 3.38 ± 1.49 nM
Fc1ccc(-c2nc(-c3c(F)cccc3F)[nH]c2-c2ccncc2)cc1  IC50 (CSNK1E; inhibitor): 6.4 ± 0.4 nM
COc1ccccc1-c1nccc(COc2ccccc2C[C@@H](Nc2nccc3sc(-c4ccc(F)cc4)c(-c4ccc(OCCN5CCN(C)CC5)c(Cl)c4C)c23)C(=O)O)n1  IC50 (MCL1; binding, quench): 1.2 nM
COc1cc(N2CCC(N3CCN(C)CC3)CC2)ccc1Nc1ncc(Cl)c(Nc2ccccc2P(C)(C)=O)n1  IC50 (SLC22A1 (Homo sapiens, UniProt O15245); transport, inhibitor; HEK cells transfected with SLC22A1; together with: MPP+ substrate): 6490 nM
Cc1ccc(-c2cc(Br)cc(Br)c2)n1-c1cc(F)cc(F)c1  IC50 (PTGS2; enzyme activity, inhibitor, fluorogenic resorufin): 12400 ± 200 nM
Cc1[nH]c(C)c(S(=O)(=O)Nc2ccc(S(N)(=O)=O)c(Cl)c2)c1C(=O)N1CCC(F)(F)C1  IC50 (DRD2): > 100000 nM
CCN1CCN(c2nccc(-c3noc([C@@]4(C)CCCc5sc(N)c(C#N)c54)n3)n2)[C@@H](C)C1  IC50 (KRAS with SOS1; KRAS wild type-SOS1 interaction, inhibitor, AlphaScreen; geometric mean): 76 nM
COc1cccc(F)c1-c1nc(-c2ccc(F)cc2)c(-c2ccncc2)[nH]1  IC50 (CSNK1E; inhibitor): 108 ± 14.8 nM
Nc1nsc(C(=O)NCc2ccccn2)c1Cl  IC50 (Lysine--tRNA ligase, cytoplasmic; enzyme activity, inhibitor): > 100000 nM
Cc1cc(Nc2ncc(Cl)c(Nc3ccccc3S(=O)(=O)C(C)C)n2)c(OC(C)C)cc1C1CCNCC1  IC50 (NTRK2; enzyme activity, inhibitor; together with: 1 mM ATP): > 3300 nM
COCC#Cc1c(N)nsc1C(=O)NCC1CCCCC1  IC50 (Lysine--tRNA ligase, cytoplasmic; enzyme activity, inhibitor): 6310 nM
O=C(C1=C(O)C(=O)N(c2ccc(Br)cc2F)C1c1cccc(Br)c1)C1CC1 (centres unmarked)  IC50 (CCR1 (Homo sapiens, UniProt P32246); inverse agonist; U2OS expressing CCR1; no CCL3): 6730 nM
CCn1c(-c2nc3cc(C(=O)N4CCC[C@@H](N)C4)cc(OC)c3n2C)cc2cccnc21  IC50 (OPRK1 (Homo sapiens, UniProt P41145); antagonist, GTPγS binding): > 100000 nM
COc1ccccc1-c1nccc(COc2ccccc2C[C@@H](Oc2ncnc3oc(-c4ccc(F)cc4)c(-c4ccc(OCCN5CCN(C)CC5)c(Cl)c4C)c23)C(=O)O)n1  IC50 (MCL1; binding, quench): 0.036 nM
Cc1[nH]c(C)c(S(=O)(=O)Nc2ccc(C(F)(F)F)c(Cl)c2)c1C(=O)N(C)CC(F)(F)F  IC50 (DRD2): > 100000 nM
Cn1cnc(Cn2ccc3ccc(CNCc4[nH]c5ccccc5c4[C@H]4NC(=O)c5ccc(O)cc54)cc32)c1  IC50 (GTPase KRas, GppNHp; with RAF1 RBD (KRAS, Homo sapiens, UniProt P01116, Q61R); HTRF): 13400 ± 4700 nM
O=C(Nc1cnccc1Cl)N1CCN(Cc2ccc3c(c2)OC(F)(F)O3)CC1  IC50 (FAAH; enzyme activity, inhibitor; COS cells expressing human FAAH; 3 h): 25.1 nM
CC1(F)CN(C(=O)Cn2c(=O)c(C(=O)NCc3ccc(Cl)cc3)cc3nc(N4CCN(CC(=O)O)C4=O)cnc32)C1  IC50 (DNA polymerase catalytic subunit; enzyme activity; single determination): 224 nM
COc1ccccc1-c1nc(-c2ccc(F)cc2)c(-c2ccncc2)[nH]1  IC50 (CSNK1E; inhibitor): 268 ± 10.9 nM
CCCCN(CCCC)C(=O)c1c(C)[nH]c(C)c1S(=O)(=O)Nc1ccc(C(F)(F)F)c(Cl)c1  IC50 (DRD2): > 100000 nM
Cc1cc2c(cc1N1C(=O)c3cccc4c(N5CCOCC5)ccc(c34)C1=O)n(C)c(=O)n2C  IC50 (TAF1L BD2; HTRF; GST-tagged protein): 309 nM
COc1cc2c(c(OC)c1OC)-c1c(cc3c(c1OC)OCO3)C[C@H](C)[C@](C)(O)[C@H]2OC(=O)c1ccccc1  IC50 (Cytochrome P450 3A5 (CYP3A5, Homo sapiens, UniProt P20815); midazolam 1'-hydroxylation, inhibitor, recombinant enzyme; 15 min, pH 7.4, together with: midazolam 5 µM): 88 ± 40 nM
Cc1ccc2[nH]nc(-c3nnc(Nc4ccc(C(F)(F)F)cc4)s3)c2c1  IC50 (α-glucosidase; enzyme activity, inhibitor; pH 6.8, together with: p-nitrophenyl-α-D-glucopyranoside): 1870 ± 790 nM
CN1CCN(c2cc3c(cc2N2C(=O)c4cccc5cccc(c45)C2=O)n(C)c(=O)n3C)CC1  IC50 (TAF1L BD2; HTRF; GST-tagged protein): 4180 nM
Cc1[nH]c(C)c(S(=O)(=O)Nc2ccc(Cl)c(Cl)c2Cl)c1C(=O)N1CCC(F)(F)C1  IC50 (DRD2): > 100000 nM
CC1(C)CCC(CNC(=O)c2snc(N)c2Cl)CC1  IC50 (Lysine--tRNA ligase, cytoplasmic; enzyme activity, inhibitor): 3160 nM
CCOC(=O)/C=C/c1ccc(OC)cc1  IC50 (PTGS2; inhibitor): 830 nM
Cc1nn(C)c2ncc(C(=O)Nc3ccccc3)c(Cl)c12  IC50 (60 kDa heat shock protein, mitochondrial, with HSP10 (Homo sapiens, UniProt P10809); HSP60/10-mediated MDH refolding; 30 min, preincubation before ATP, together with: denatured malate dehydrogenase): 3800 nM
CC1(F)CN(C(=O)Cn2c(=O)c(C(=O)NCc3ccc(Cl)cc3)cc3nc(N4CCNC4=O)cnc32)C1  IC50 (DNA polymerase catalytic subunit; enzyme activity; retest): 450 nM
Cc1cc(OC(C)C)ccc1C(=O)C(C)(C)NC(=O)c1sccc1C  IC50 (mitochondrial complex II-III (succinate-cytochrome c oxidoreductase), Pythium; enzyme activity, inhibitor; mitochondrial fraction; 25 °C): > 1 µg/mL
CN1CCC[C@H]1COc1nccc(-c2noc([C@@]3(C)CCCc4sc(N)c(C#N)c43)n2)n1  IC50 (GTPase KRas, with SOS1 (KRAS, Homo sapiens, UniProt P01116, C118S/G12V); KRAS G12V-SOS1 interaction, inhibitor, AlphaScreen; geometric mean): 135 nM
COc1ccc(-c2oc3cc(Nc4ncc5cc(C(=O)N(C)C)n(C6CCCC6)c5n4)ccc3c(=O)c2F)cc1  IC50 (CDK6 with cyclin D1; inhibitor, HotSpot radiometric kinase; together with: 10 µM ATP, cyclin D1): 5260 nM
CCN1CC/C(=C\c2cc(C(C)(C)C)c(O)c(C(C)(C)C)c2)S1(=O)=O  IC50 (PTGS2; inhibitor): 11 nM
C[C@H]1CN(CC(F)(F)F)CCN1c1nccc(-c2noc([C@@]3(C)CCCc4sc(N)c(C#N)c43)n2)n1  IC50 (KRAS with SOS1; KRAS wild type-SOS1 interaction, inhibitor, AlphaScreen; geometric mean): 12500 nM
CN(C)C(=O)c1cc2cnc(Nc3cccc4c(=O)cc(N5CCOCC5)oc34)nc2n1C1CCCC1  IC50 (CDK6 with cyclin D1; inhibitor, HotSpot radiometric kinase; together with: 10 µM ATP, cyclin D1): > 10000 nM
Cc1ccc(NS(=O)(=O)c2c(C)[nH]c(C)c2C(=O)N2CCC(F)(F)C2)cc1N(C)C  IC50 (DRD2): > 100000 nM
FC(F)(F)c1cccc(-c2nnc(S)o2)c1  IC50 (P2X purinoceptor 7 (P2RX7, Homo sapiens, UniProt Q99572); calcium mobilization, antagonist; MCF7 transfected with P2RX7; together with: 100 µM BzATP): 1500 ± 163 nM

For quick reference, copied from above:
CN1CCN(c2cc3c(cc2N2C(=O)c4cccc5cccc(c45)C2=O)n(C)c(=O)n3C)CC1  IC50 (TAF1L BD2; HTRF; GST-tagged protein): 4180 nM
Cc1[nH]c(C)c(S(=O)(=O)Nc2ccc(Cl)c(Cl)c2Cl)c1C(=O)N1CCC(F)(F)C1  IC50 (DRD2): > 100000 nM
CC1(C)CCC(CNC(=O)c2snc(N)c2Cl)CC1  IC50 (Lysine--tRNA ligase, cytoplasmic; enzyme activity, inhibitor): 3160 nM
CCOC(=O)/C=C/c1ccc(OC)cc1  IC50 (PTGS2; inhibitor): 830 nM
Cc1nn(C)c2ncc(C(=O)Nc3ccccc3)c(Cl)c12  IC50 (60 kDa heat shock protein, mitochondrial, with HSP10 (Homo sapiens, UniProt P10809); HSP60/10-mediated MDH refolding; 30 min, preincubation before ATP, together with: denatured malate dehydrogenase): 3800 nM
CC1(F)CN(C(=O)Cn2c(=O)c(C(=O)NCc3ccc(Cl)cc3)cc3nc(N4CCNC4=O)cnc32)C1  IC50 (DNA polymerase catalytic subunit; enzyme activity; retest): 450 nM
Cc1cc(OC(C)C)ccc1C(=O)C(C)(C)NC(=O)c1sccc1C  IC50 (mitochondrial complex II-III (succinate-cytochrome c oxidoreductase), Pythium; enzyme activity, inhibitor; mitochondrial fraction; 25 °C): > 1 µg/mL
CN1CCC[C@H]1COc1nccc(-c2noc([C@@]3(C)CCCc4sc(N)c(C#N)c43)n2)n1  IC50 (GTPase KRas, with SOS1 (KRAS, Homo sapiens, UniProt P01116, C118S/G12V); KRAS G12V-SOS1 interaction, inhibitor, AlphaScreen; geometric mean): 135 nM
COc1ccc(-c2oc3cc(Nc4ncc5cc(C(=O)N(C)C)n(C6CCCC6)c5n4)ccc3c(=O)c2F)cc1  IC50 (CDK6 with cyclin D1; inhibitor, HotSpot radiometric kinase; together with: 10 µM ATP, cyclin D1): 5260 nM
